Results from different studies.
Every numbered part comes from another study and shows a few of its results, in no order.

Sample 1
Target: Histone acetyltransferase KAT6A, both winged helices, GST fusion (KAT6A, Homo sapiens, UniProt Q92794, residues 1-181)
Technique: protein binding microarray
Form: double-stranded DNA, one strand shown
Sample: in vitro
Tested at: not given
Notes: 8-mer, flanks averaged, mean of 2 arrays, mostly near background
Relative to: not given
Direction: higher = stronger binding
Construct (chain): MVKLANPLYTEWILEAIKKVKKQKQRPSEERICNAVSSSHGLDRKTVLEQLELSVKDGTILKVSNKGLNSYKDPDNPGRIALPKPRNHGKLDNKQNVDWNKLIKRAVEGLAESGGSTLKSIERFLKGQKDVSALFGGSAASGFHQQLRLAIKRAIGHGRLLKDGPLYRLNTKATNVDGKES
Sequence	E-score
ATGCTGGA	-0.133
AACAGCAG	-0.105
GACGGGAA	0.318

Sample 2
Target: Transcription factor Sp1 (SP1, Homo sapiens, UniProt P08047, residues 1-785, full length assumed)
Sequence of UniProt P08047 (whole entry, looked up): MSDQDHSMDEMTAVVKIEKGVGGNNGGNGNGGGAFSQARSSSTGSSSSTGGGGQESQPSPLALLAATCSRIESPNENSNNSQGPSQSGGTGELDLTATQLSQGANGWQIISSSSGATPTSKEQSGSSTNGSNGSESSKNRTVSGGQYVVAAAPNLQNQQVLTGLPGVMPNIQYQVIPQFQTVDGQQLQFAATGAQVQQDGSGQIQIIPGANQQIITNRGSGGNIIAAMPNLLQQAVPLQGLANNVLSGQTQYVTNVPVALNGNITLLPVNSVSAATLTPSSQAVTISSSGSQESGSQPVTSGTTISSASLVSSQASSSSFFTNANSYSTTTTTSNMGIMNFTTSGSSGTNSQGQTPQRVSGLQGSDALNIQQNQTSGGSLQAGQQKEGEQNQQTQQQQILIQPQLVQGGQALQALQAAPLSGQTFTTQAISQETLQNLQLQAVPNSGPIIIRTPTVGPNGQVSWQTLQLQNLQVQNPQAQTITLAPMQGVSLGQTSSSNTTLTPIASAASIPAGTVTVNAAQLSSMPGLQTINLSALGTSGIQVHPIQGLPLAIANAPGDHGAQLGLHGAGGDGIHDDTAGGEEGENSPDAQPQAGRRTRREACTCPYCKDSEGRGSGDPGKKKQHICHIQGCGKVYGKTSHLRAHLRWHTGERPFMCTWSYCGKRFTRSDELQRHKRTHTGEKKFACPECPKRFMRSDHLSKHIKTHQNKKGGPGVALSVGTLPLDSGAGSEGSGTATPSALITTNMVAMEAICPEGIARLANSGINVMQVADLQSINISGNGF
Technique: protein-binding microarray
Form: double-stranded DNA, one strand shown
Sample: in vitro
Tested at: not given
Notes: k-mer, scored over probes, only values ≥0.25
Direction: higher = stronger binding
Sequence	E-score
ATTATGTA	0.253
AGGGGCGG	0.491
ACATGGTA	0.256
ATCTGTAC	0.282

Sample 3
Target: Sal-like protein 4, full length isoform B (SALL4, Homo sapiens, UniProt Q9UJQ4-2, residues 1-616)
Technique: universal PBM
Form: double-stranded DNA, one strand shown
Sample: in vitro
Tested at: not given
Notes: 8-mer, flanks averaged, mean of replicates
Direction: higher = stronger binding
Sequence	E-score
AATCGGGG	-0.189
AGTCGACC	-0.191
TACGACGA	-0.00298

Single results of other studies
Molecule	target	test	test system	conditions	how to read	quantity	value
PhoQ, residues 284 288 289 292 302 303 ALSMDL	PhoP, residues 12 14 15 18 19 NNFVT (Escherichia coli, UniProt P23836)	Sort-seq, refers to: YFP reporter	E. coli	PhoQ-PhoP variant library, with: 10 µM Mg2+	relative to: high Mg2+ state, higher = stronger signaling	fold induction	9.56

For quick reference, copied from above (sample 2):
Sequence	E-score
AGGGGCGG	0.491
